Results of several laboratories.
Numbered parts are unrelated; each lists some results of a single study.

Series 1 — method: protein binding microarray; molecule type: double-stranded DNA, one strand shown; matrix: in vitro; tested at: not given; baseline: not given; direction: higher = stronger binding
Target: Histone acetyltransferase KAT6A, both winged helices, GST fusion (KAT6A, Homo sapiens, UniProt Q92794, residues 1-181)
Notes: 8-mer, flanks averaged, mean of 2 arrays, mostly near background
Construct (chain): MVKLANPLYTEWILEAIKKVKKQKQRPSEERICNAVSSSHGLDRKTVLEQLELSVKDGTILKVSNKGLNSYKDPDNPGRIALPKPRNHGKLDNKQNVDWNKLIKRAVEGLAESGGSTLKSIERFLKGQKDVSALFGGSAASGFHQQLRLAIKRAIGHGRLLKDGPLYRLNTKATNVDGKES
Oligonucleotide | E-score
GAATGGAC | -0.148
CCTCTGGA | -0.124
AATGGGCT | -0.187
CTCAGCAG | -0.215
AACGTGGT | -0.0946
ATCTCAGG | -0.101
CGGTTAAG | 0.125
CATGCGCA | 0.251
GGGCGTGA | 0.142
CCGGTCCA | 0.0944
CTGTGATA | -0.0592
TGGTGCAA | -0.106
GGTCTGGA | -0.0503
AACGACGC | 0.115
ACGGATGG | 0.167
TTCAGCAA | -0.226
CCGTCTAG | 0.232
GGAACGGA | 0.196
AGACCGGC | 0.208
CCGTCCCA | 0.00675
ATTTGTCG | -0.0386

Series 2 — method: protein-binding microarray; molecule type: double-stranded DNA, one strand shown; matrix: in vitro; tested at: 940 nM top; notes: 60-bp whole probe; with: salmon DNA 0.4 mg/ml; baseline: random background probes; direction: higher = stronger binding; shared flanks, not repeated: GCCTAGCAC … GTCTTGATTCGCTTGACGCTGCTG
Target: Interferon regulatory factor 5, full length, phosphomimetic (IRF5, Homo sapiens, UniProt Q13568-2, residues 1-514, S451D/S453D/S456D/S462D)
Oligonucleotide | fitted relative affinity [z-score]
TTTGGTATCGGTCTCGGTTAGTGCTAG | 13.9
GACGGACTGCGTATCGGGACGTGCTAG | -0.0461
TTAGGTCTCCTGATCCTTTAGTGCTAG | -0.269
TTGTGTCAACTTTCTCTGCTCGTGCTA | 0.177
TTAGATTTCGGGTTGCGATTAGTGCTA | 1.51
TTAGGACTGCTACTGCGTTAGTGCTAG | -0.643
TCATTTATTTTTTTTATACTGTGCTAG | 1.83
GACGGTTTACTTTCCCTGACGTGCTAG | 0.976
TCATGTGTTACTTTCTAACTGTGCTAG | 0.884
GACGATATCAGTATCGGGACGTGCTAG | 1.65
TACGGTTTCGGTATCGGGACGTGCTAG | 12.5
TGTGGCTTAGCTGTCACCTCGTGCTAG | -0.36
TTAGGTCTCGATATCGGTTAGTGCTAG | 4.52
GACGGATTCGGTTTCGGGACGTGCTAG | 4.86
TTAGGACTGGACACTGGGTTAGTGCTA | -0.261
GTAGGTTTCGGTTCCGGTTAGTGCTAG | 15.1
TTAGATTTCAGTATCGGTTAGTGCTAG | 6.24
TTAGGTTTCGGTTTCGGTCAGTGCTAG | 16.3
TTTTGCTTTCCTTTATGTACGTGCTAG | 2.66
TTATGTTTCCTTTTCCTTTAGTGCTAG | 1.88
GACGGTATCAGTTTCGGGACGTGCTAG | 5.99
GACGGACTGAGTATCGGGACGTGCTAG | 1.03
TCAAATTAGTGTTTCCCACTGTGCTAG | -0.271

Series 3 — method: competition protein-binding microarray; molecule type: double-stranded DNA, one strand shown; matrix: in vitro; tested at: 2 µM; with: Cbf1 competitor, 0.05 µM; direction: higher = stronger binding; shared flanks, not repeated: … GTCTTGATTCGCTTGACGCTGCTG
Target: Phosphate system positive regulatory protein PHO4, full length, GST-tagged (PHO4, Saccharomyces cerevisiae, UniProt P07270, residues 1-312)
Sequence of UniProt P07270 (whole entry, looked up): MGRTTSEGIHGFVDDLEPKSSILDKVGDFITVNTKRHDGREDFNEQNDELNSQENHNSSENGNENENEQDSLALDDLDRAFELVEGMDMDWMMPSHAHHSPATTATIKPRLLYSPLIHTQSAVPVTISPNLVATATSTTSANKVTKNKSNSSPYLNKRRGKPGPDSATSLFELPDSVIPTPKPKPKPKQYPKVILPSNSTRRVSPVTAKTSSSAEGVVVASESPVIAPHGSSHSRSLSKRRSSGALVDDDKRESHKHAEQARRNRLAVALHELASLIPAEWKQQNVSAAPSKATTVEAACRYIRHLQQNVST
Notes: whole 60-bp probe, lowest competitor level
Oligonucleotide | fluorescence intensity [a.u.]
CTTCTGTAAATTTGCGCTGTGGGTGGACGCGCCCCG | 4540
GGAAACTTTTTAAAGCACGTGGAAGAGATATGAAGG | 19300
CTTCTGTAAATTTGTGCCGTGGGTGGACGCGCCCCG | 5240
AGCAGGATTTATAGGCGCGTGCGGACAGCCTTAGAC | 11900
CTTCTGTAAATTTGGAGGGTGGGTGGACGCGCCCCG | 4260
ACATCTGGGCAAATCGTCGTGCGGAAAATGAATTTG | 6490
ACAAGTGCTTTAAATGATGTGACGGGTTATTCTGGA | 4390
CTTTCCCGATCTTGAGGAGTGGGTGTAGCACATTTG | 4620
TACGAAAAACAGAGAAACGTGTCGGTAGCATCCGAT | 11900
CGCGAACGAATCCATCACGCAGCCTCGCCTTGAGAC | 5720
AAATTACTAAGTTGCCACGTGGGTGACGCCGTATGA | 25700
ACAGCCACTGGCGGCCGCGTGCTTCCTCCCCTCCCT | 9350
GCCACTTTGTAGCGTCACAATGACTGGGTTTCCCAA | 3040
CTAACGAAGGTTTGGGAGGTGGGTGACAAGCCAAGT | 4040
TGCGCAACAACTTGTCACTCCACTTTATGTCTAGAA | 3450
CTAACGAAGGTTTGAGGCGTGGGTGACAAGCCAAGT | 7690
AAAACTTACTTCCGTCACATGCAAGACGTAGACCCA | 8600
GAGGCACTGATCCATCACGTGGAGGAGAACAATTTA | 14000
CAGTGGGATGATCTACTCGTGTGGAAGACATGTCGA | 6870
CATACCCAACCTTGGCGTGTGGGTGAAGATATTTGT | 6340
ATTGAATTGGGATATCACATGGTTATTATGGGTCCT | 7740
CTTCTGTAAATTTTTCACGTGGTCTGACGCGCCCCG | 11600
TATCTCTATCCTGCGACCGTGATGGTACCGAAAGTA | 5250
TTATGAACTGCTACCCACGTGTAACCAATTTTTTTA | 18300
GTTACCCTCATAAAGCACGTGGCCGCTTATCGAGAA | 17900

Series 4 — method: RNA Bind-n-Seq; molecule type: RNA; matrix: in vitro; tested at: 200 nM; notes: whole 134-nt RNA, ends assumed; with: 150 mM KCl; baseline: input library; direction: higher = stronger binding
Target: Ras GTPase-activating protein-binding protein 1, full length (G3BP1, Homo sapiens, UniProt Q13283)
Sequence of UniProt Q13283 (whole entry, looked up): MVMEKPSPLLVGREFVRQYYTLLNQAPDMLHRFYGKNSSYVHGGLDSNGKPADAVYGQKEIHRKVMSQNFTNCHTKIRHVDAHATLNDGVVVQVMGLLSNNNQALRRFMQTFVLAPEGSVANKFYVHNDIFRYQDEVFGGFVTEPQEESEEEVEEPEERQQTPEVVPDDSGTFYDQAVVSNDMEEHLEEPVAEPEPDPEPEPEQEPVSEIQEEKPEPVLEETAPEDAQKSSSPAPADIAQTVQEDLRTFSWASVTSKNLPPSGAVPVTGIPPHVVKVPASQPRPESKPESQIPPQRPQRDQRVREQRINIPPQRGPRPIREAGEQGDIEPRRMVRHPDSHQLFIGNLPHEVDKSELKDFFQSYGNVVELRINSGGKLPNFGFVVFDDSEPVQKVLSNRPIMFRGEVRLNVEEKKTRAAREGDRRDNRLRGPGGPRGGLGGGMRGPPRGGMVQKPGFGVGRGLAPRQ
Shared flanks, not repeated: GGGAGUUCUACAGUCCGACGAUC … UGGAAUUCUCGGGUGUCAAGG
Oligonucleotide | log2 enrichment
UAACUUUAGAGGAGGAUCUGAUGGAUAUGGCAGUGGACGUGGAUUUGGGGAUGGCUAUAAUGGGUAUGGAGGAGGCCCUGGAGGUGGCAA | 0.35
UGUACAAACACUUUCCCAUCCCCCUCAUUAACCGGCUGGAGAAGCACUAUCUGGAUAUCAACACGGUGCUGGAGAAAUGGCAGAAGAGCA | -0.0138
UCAAGUCCUGUGCUACACAUCGUAUGUACCGAAUCGGGUUUGGGUUUGGUUUGGGAAAGUAUUAUGUUACGCCGUUCGGAUCUGCACUUC | -0.512
CCUCAAGUCCUGUGCUACACAUCGUAUGUACCGAAUCGGUUUGGUGGAAAGGAAAGUAUUAUGUUACGCCGUUCGGAUCUGCACUUCCAG | -0.00438
CUCAAGUCCUGUGCUACACAUCGUAUGUACCGAAUCGGUUUUUGGUGGAAAGGAAAGUAUUAUGUUACGCCGUUCGGAUCUGCACUUCCA | -0.374
UGGGAGGUGGAUUUUGUUUAAUUUUUUAGCUCAUUUCCAGGGGUGGGAAUUUUUUUUUAAUAUGUGUCAUGAAUAAAGUUGUUUUUGAAA | 0.166
CCUCAAGUCCUGUGCUACACAUCGUAUGUACCGAAUCGGGGCGGGGCGGCGGGAAAGUAUUAUGUUACGCCGUUCGGAUCUGCACUUCCA | 0.637
GUCCUGUGCUACACAUCGUAUGUACCGAAUCGGGCCCCCGGGGCCCCCGGGCCCCCGGAAAGUAUUAUGUUACGCCGUUCGGAUCUGCAC | -1.63
UUCUCUCUCUCCCUUUGCAGCCGCUGUACAACCAGCCCUCCGACACCCGGCAGUAUCAUGAGAACAUCAAAAUGUGAGUGCUCGCGGGCA | 0.472
CCUGUGCUACACAUCGUAUGUACCGAAUCGGGCCCCCCCGGCCCCCCCGGGGCCCCCCCGGAAAGUAUUAUGUUACGCCGUUCGGAUCUG | -0.0598
CCUGUGCUACACAUCGUAUGUACCGAAUCGGGGUUUUUUUGGGGUUUUUGGGGAAAGGGGAAAGUAUUAUGUUACGCCGUUCGGAUCUGC | 0.207
UCUUCCGUGACAUUUCAUUUGGGGAACAACUUUUCUCUUUACAGGCCCGAGUGACUAAGGGAUGUACCAUUGUUAAGCCUUUCAACCUGU | 0.967
AAGUCCUGUGCUACACAUCGUAUGUACCGAAUCGGAAAAGGGGAAAAGGGAAAAGGGAAAGUAUUAUGUUACGCCGUUCGGAUCUGCACU | -0.386
AUUCUAUAAAUGGCAAGUAAGCCUGAAGUGAGGAUACUGCAAUUUUCGGAGAAAAGAACAGCAGCUCUUUAAGUGUUUGCAUUUUCUAUU | -1.52

A few entries again (series 4):
Oligonucleotide | log2 enrichment
UGUACAAACACUUUCCCAUCCCCCUCAUUAACCGGCUGGAGAAGCACUAUCUGGAUAUCAACACGGUGCUGGAGAAAUGGCAGAAGAGCA | -0.0138
UCAAGUCCUGUGCUACACAUCGUAUGUACCGAAUCGGGUUUGGGUUUGGUUUGGGAAAGUAUUAUGUUACGCCGUUCGGAUCUGCACUUC | -0.512
CCUCAAGUCCUGUGCUACACAUCGUAUGUACCGAAUCGGUUUGGUGGAAAGGAAAGUAUUAUGUUACGCCGUUCGGAUCUGCACUUCCAG | -0.00438
CUCAAGUCCUGUGCUACACAUCGUAUGUACCGAAUCGGUUUUUGGUGGAAAGGAAAGUAUUAUGUUACGCCGUUCGGAUCUGCACUUCCA | -0.374
UGGGAGGUGGAUUUUGUUUAAUUUUUUAGCUCAUUUCCAGGGGUGGGAAUUUUUUUUUAAUAUGUGUCAUGAAUAAAGUUGUUUUUGAAA | 0.166
CCUCAAGUCCUGUGCUACACAUCGUAUGUACCGAAUCGGGGCGGGGCGGCGGGAAAGUAUUAUGUUACGCCGUUCGGAUCUGCACUUCCA | 0.637
GUCCUGUGCUACACAUCGUAUGUACCGAAUCGGGCCCCCGGGGCCCCCGGGCCCCCGGAAAGUAUUAUGUUACGCCGUUCGGAUCUGCAC | -1.63
UUCUCUCUCUCCCUUUGCAGCCGCUGUACAACCAGCCCUCCGACACCCGGCAGUAUCAUGAGAACAUCAAAAUGUGAGUGCUCGCGGGCA | 0.472
CCUGUGCUACACAUCGUAUGUACCGAAUCGGGCCCCCCCGGCCCCCCCGGGGCCCCCCCGGAAAGUAUUAUGUUACGCCGUUCGGAUCUG | -0.0598
CCUGUGCUACACAUCGUAUGUACCGAAUCGGGGUUUUUUUGGGGUUUUUGGGGAAAGGGGAAAGUAUUAUGUUACGCCGUUCGGAUCUGC | 0.207
UCUUCCGUGACAUUUCAUUUGGGGAACAACUUUUCUCUUUACAGGCCCGAGUGACUAAGGGAUGUACCAUUGUUAAGCCUUUCAACCUGU | 0.967
